# Published values pooled from the literature.
# A part holds a random share of what one study measured.

# Series 1
# Target: Histone acetyltransferase KAT6A, both winged helices, GST fusion (KAT6A, Homo sapiens, UniProt Q92794, residues 1-181)
# Technique: protein binding microarray
# Form: double-stranded DNA, one strand shown
# Matrix: in vitro
# Tested at: not given
# Notes: 8-mer, flanks averaged, mean of 2 arrays, mostly near background
# Reference: not given
# Direction: higher = stronger binding
# Target sequence (chain): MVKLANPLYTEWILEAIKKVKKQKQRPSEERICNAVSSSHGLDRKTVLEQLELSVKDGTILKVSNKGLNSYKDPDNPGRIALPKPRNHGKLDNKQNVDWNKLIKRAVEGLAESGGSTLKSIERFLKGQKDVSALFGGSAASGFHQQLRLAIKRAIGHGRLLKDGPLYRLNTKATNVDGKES
Strand,E-score
ATTAATGG,-0.0609
GCCGTTCC,0.222
CGTCCATC,0.145
CAGGGTAC,-0.0572
CGTGCTTC,-0.0513
CAGATCGA,-0.177
GATGATCC,0.00265
GAACCTGC,-0.135

# Series 2
# Target: Replicase polyprotein 1ab, polymerase (rep, Severe acute respiratory syndrome coronavirus 2, UniProt P0DTD1)
# Observed: enzyme activity
# Mode: inhibitor
# Tested at: 20 µM
Structure (SMILES),inhibition [%]
CC[C@H](CC[C@@H](C)[C@H]1CC[C@H]2[C@@H]3CC=C4C[C@@H](O[C@@H]5O[C@H](CO)[C@@H](O)[C@H](O)[C@H]5O)CC[C@]4(C)[C@H]3CC[C@]12C)C(C)C,-3.77
COc1ccc(NS(=O)(=O)c2sc3ccc(Cl)cc3c2C)cc1N1CCNCC1,12.6
O=S(=O)(O)c1ccc2[nH]c(-c3ccccc3)nc2c1,-0.91
CC(C)c1cc(-c2n[nH]c(=O)n2-c2ccc3c(ccn3C)c2)c(O)cc1O,-7.17
CCC1(c2ncc[nH]2)Cc2ccccc2O1 (stereo not drawn),4.84
CC(=O)N[C@@H](CS)C(=O)O,4.25
Clc1ccc(-c2nc3sccn3c2/C=N/OCc2ccc(Cl)c(Cl)c2)cc1,-1.48
CC(C)(C)[C@]1(O)C[C@@H]2OC(=O)C[C@@]23C(=O)O[C@@H]2OC(=O)[C@H](O)[C@]213,0.91
N[C@H](C(=O)O)[C@@H]1CC(Cl)=NO1,1.58
COc1cc([C@H]2Oc3ccc([C@H]4Oc5cc(O)cc(O)c5C(=O)[C@@H]4O)cc3O[C@@H]2CO)ccc1O,13.8
Oc1ccc2c3c1O[C@H]1c4c(c5ccccc5n4Cc4ccccc4)C[C@@]4(O)[C@@H](C2)N(CC2CC2)CC[C@]314,-4.65
Cc1c(F)cc(C(=O)NC2CC2)cc1-c1c(F)cn2c(C(C)(C)C)nnc2c1F,4.16
CN1CCC(NC(=O)c2cc(-c3c(O)cc(O)cc3Oc3ccc([N+](=O)[O-])cc3)on2)CC1,-1.93
C#C[C@]1(OC(C)=O)CC[C@H]2[C@@H]3CCC4=CC(=O)CC[C@@H]4[C@H]3CC[C@@]21C,9.81
Cc1cc(/C=C/c2ccc3cc(N(C)C)ccc3[n+]2C)c(C)n1-c1ccccc1,7.79
COC(=O)N[C@H](C(=O)N1CCC[C@H]1c1ncc(-c2ccc(-c3ccc(-c4cnc([C@@H]5CCCN5C(=O)[C@@H](NC(=O)OC)C(C)C)[nH]4)cc3)cc2)[nH]1)C(C)C,1.29
CC(C)Oc1ccc(-c2nn([C@@H](C)c3oc4ccc(F)cc4c(=O)c3-c3cccc(F)c3)c3ncnc(N)c23)cc1F,1.71
Nc1nc(OCc2cc(Br)cs2)c2[nH]cnc2n1,2.19

# Series 3
# Target: Interferon regulatory factor 7, full length, phosphomimetic (IRF7, Homo sapiens, UniProt Q92985, residues 1-503, S101K/S471D/S472D/S475D/S476D/S477D/S483D/S484D/S487D)
# Technique: protein-binding microarray
# Form: double-stranded DNA, one strand shown
# Matrix: in vitro
# Tested at: 250 nM
# Notes: 60-bp whole probe
# With: salmon DNA 0.4 mg/ml
# Reference: random background probes
# Direction: higher = stronger binding
# Shared flanks, not repeated: GCCTAGCAC … GTCTTGATTCGCTTGACGCTGCTG
# Target sequence (chain): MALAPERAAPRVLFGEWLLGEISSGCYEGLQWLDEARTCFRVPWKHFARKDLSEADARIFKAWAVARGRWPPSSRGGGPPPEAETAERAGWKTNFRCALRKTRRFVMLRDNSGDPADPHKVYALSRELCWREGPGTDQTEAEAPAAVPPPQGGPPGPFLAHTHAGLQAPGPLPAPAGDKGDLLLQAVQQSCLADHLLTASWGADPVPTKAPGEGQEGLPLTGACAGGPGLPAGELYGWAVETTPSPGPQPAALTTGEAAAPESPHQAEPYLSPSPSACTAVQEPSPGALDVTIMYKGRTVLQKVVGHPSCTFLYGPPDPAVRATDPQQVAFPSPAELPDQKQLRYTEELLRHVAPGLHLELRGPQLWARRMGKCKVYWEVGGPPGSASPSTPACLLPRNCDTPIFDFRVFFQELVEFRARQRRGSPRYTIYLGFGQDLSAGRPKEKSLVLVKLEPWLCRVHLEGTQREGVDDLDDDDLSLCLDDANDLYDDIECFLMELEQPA
Strand,log fluorescence [z-score]
GACGGTTTCGTTTTCCTGACGTGCTAG,14.3
GACGGTTTCCTACTGCTGTCGTGCTAG,1.85
AGAGTGCTCATGCTTCTTAGGGTGCTA,-0.876
TTAGGTATCGGGTATCGTTTAGTGCTA,1.89
GACGATTTCAGACCGGAGACGTGCTAG,-0.159
GACCATATCGGGACTGGAGACGTGCTA,-0.0421
TCACTTCTGGATCTCAGACTGTGCTAG,0.459
GACGATATCGTGACTGGAGACGTGCTA,-0.409

# Mixed results
# Target: Replicase polyprotein 1ab, main protease (rep, Severe acute respiratory syndrome coronavirus 2, UniProt P0DTD1)
# Observed: enzyme activity
# Mode: inhibitor
Structure (SMILES),setting,endpoint,value
COc1ccc2[nH]c([S@@+]([O-])Cc3ncc(C)c(OC)c3C)nc2c1,"20 µM, hit confirmation, with DTT",inhibition,-9%
Cc1ccc(S(=O)(=O)N[C@@H](Cc2ccccc2)C(=O)CCl)cc1,,IC50,840 nM

# For quick reference, copied from above (series 2):
Structure (SMILES),inhibition [%]
Oc1ccc2c3c1O[C@H]1c4c(c5ccccc5n4Cc4ccccc4)C[C@@]4(O)[C@@H](C2)N(CC2CC2)CC[C@]314,-4.65
Cc1c(F)cc(C(=O)NC2CC2)cc1-c1c(F)cn2c(C(C)(C)C)nnc2c1F,4.16
CN1CCC(NC(=O)c2cc(-c3c(O)cc(O)cc3Oc3ccc([N+](=O)[O-])cc3)on2)CC1,-1.93
C#C[C@]1(OC(C)=O)CC[C@H]2[C@@H]3CCC4=CC(=O)CC[C@@H]4[C@H]3CC[C@@]21C,9.81
Cc1cc(/C=C/c2ccc3cc(N(C)C)ccc3[n+]2C)c(C)n1-c1ccccc1,7.79
